Assay results gathered from unrelated publications.
Parts stem from different laboratories: compare values within a part only.

Set 1 — technique: RNA Bind-n-Seq; form: RNA; medium: in vitro; concentration: 1 µM; notes: whole 134-nt RNA, ends assumed; added: 150 mM KCl; reference: input library; reading: higher = stronger binding
Target: Ras GTPase-activating protein-binding protein 1, C-terminal RGG region (G3BP1, Homo sapiens, UniProt Q13283)
Sequence of UniProt Q13283 (whole entry, looked up): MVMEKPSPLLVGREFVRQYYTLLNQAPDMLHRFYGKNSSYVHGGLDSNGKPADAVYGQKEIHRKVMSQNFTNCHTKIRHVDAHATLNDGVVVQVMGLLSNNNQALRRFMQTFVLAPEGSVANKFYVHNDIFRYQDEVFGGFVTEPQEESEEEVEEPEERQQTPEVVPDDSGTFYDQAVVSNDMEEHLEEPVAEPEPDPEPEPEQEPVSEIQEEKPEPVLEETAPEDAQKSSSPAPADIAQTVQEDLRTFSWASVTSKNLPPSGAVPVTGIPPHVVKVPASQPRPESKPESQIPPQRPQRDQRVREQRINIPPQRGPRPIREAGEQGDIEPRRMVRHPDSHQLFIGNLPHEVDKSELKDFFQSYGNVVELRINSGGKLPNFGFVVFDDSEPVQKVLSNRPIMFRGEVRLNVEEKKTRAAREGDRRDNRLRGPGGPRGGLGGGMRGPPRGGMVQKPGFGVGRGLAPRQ
With `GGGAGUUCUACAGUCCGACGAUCCACAGACAACACGCACCCACACAGACACAGAGGGCAGGGGUUGGGAUGGGGACAGGGUGCACAGCAGGGCGGGGUAGGACCCCAGCCCCUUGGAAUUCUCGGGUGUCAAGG` the log2 enrichment was -0.0209.
`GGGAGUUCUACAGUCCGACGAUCUCCUGUGCUACACAUCGUAUGUACCGAAUCGGGGUUUUUGGGGAGGGGUUUUUUUGGGGAAAGUAUUAUGUUACGCCGUUCGGAUCUGCAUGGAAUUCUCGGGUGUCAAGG` has a log2 enrichment of 2.15.
With `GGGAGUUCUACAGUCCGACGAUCGUCCUGUGCUACACAUCGUAUGUACCGAAUCGGGGUUUUUGGGUUUUUGGGUUUUUGGGAAAGUAUUAUGUUACGCCGUUCGGAUCUGCAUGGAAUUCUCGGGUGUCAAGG` the log2 enrichment was -0.124.
The log2 enrichment of `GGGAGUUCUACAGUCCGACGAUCUUUUCAAGGGGGCCCCAACUGGGGCCGCCUUGUAGCCUUCUUUGUCUUUGGGGCUGCACUGUGUGCUGAGAGUGUCAACAAGGAGAUGGAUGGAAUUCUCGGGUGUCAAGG` is reported as -1.55.
`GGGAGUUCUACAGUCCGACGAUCCAGCAGUGAGUCUCUUCAGAAAACCCUUUUCUACAGUUAGGGUUGAGUUACUUCCUAUCAAGCCAGUACGUGCUAACAGGCUCAAUAUUCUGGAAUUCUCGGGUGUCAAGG` gave a log2 enrichment of -1.62.
`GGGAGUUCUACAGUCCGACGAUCACCAUGCAGGUGGGCAUCUUUGGGAAGUGGGGCAAGGGGGGGAUAGGAAAGGGGGUAACACUUUGGGAACAGGUGGUCCCAGGUCGUUUCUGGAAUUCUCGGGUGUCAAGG` has a log2 enrichment of -1.3.
`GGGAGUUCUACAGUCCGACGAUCAAGUCCUGUGCUACACAUCGUAUGUACCGAAUCGGUUUUUUUGGUGGAAAAAAAGGAAAGUAUUAUGUUACGCCGUUCGGAUCUGCACUUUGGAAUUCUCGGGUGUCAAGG` has a log2 enrichment of -2.01.
`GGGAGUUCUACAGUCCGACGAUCCACAGAGAACACGCACCCACACAGACACAGAGGGAAGGGGUUGGGAUGGGGACAGGGUGCACAGCAGGGCGGGGUAGGACCCCAGCCCCUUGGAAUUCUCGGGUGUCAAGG` gave a log2 enrichment of 0.221.

Set 2 — technique: protein-binding microarray; form: double-stranded DNA, one strand shown; medium: in vitro; concentration: 940 nM top; notes: 60-bp whole probe; added: salmon DNA 0.4 mg/ml; reference: random background probes; reading: higher = stronger binding; all sequences stand within: GCCTAGCAC … GTCTTGATTCGCTTGACGCTGCTG
Target: Interferon regulatory factor 5, full length, phosphomimetic (IRF5, Homo sapiens, UniProt Q13568-2, residues 1-514, S451D/S453D/S456D/S462D)
`TTAGATTTCGGGACTGGATTCGTGCTA` — result for “fitted relative affinity”: 0.674 z-score.
For `GGACTCACCTAGTTTCATTCCGTGCTA`, “fitted relative affinity” read 2.84 z-score.
For `TTCGCTTTCTTTACCACATTGTGCTAG`, “fitted relative affinity” read 1.64 z-score.
`GACGATTTCAGACTGGAGCCGTGCTAG` — result for “fitted relative affinity”: -0.63 z-score.
`TCAATTTTGTCCTCCCCTACTGTGCTA` — result for “fitted relative affinity”: 0.306 z-score.
For `GACGAACTGAGACTGGGGACGTGCTAG`, “fitted relative affinity” read -0.14 z-score.
Under “fitted relative affinity”, `GACCGTTTCGACTATCGGGACGTGCTA` is recorded as 3.99 z-score.

Set 3 — technique: aptamer microarray, sandwich; form: DNA with 2'F-ANA; medium: in vitro; concentration: 200 nM; added: Cy3 exosite-II aptamer, 400 nM; reading: higher = stronger binding; sequence: GGTTGGTGTGGTTGG
Target: Prothrombin, mature alpha-thrombin (F2, Homo sapiens, UniProt P00734)
Notes: whole 15-mer aptamer, many near background
`2'F-ANA at 1 4 6 7 8 12`: “mean fluorescence intensity” 317 a.u.
Under “mean fluorescence intensity”, `2'F-ANA at 4 5 6 9 10 13` is recorded as 77.2 a.u.
For `2'F-ANA at 2 3 4 5 6 7 8 11 12 13 14 15`, “mean fluorescence intensity” read 54.8 a.u.
For `2'F-ANA at 8 9 11 12 14`, “mean fluorescence intensity” read 233 a.u.
Under “mean fluorescence intensity”, `2'F-ANA at 4 5 6 7 8 9 10 11 14` is recorded as 47.2 a.u.
`2'F-ANA at 2 5 8 9 12 13 15` — result for “mean fluorescence intensity”: 98 a.u.
Under “mean fluorescence intensity”, `2'F-ANA at 1 2 3 5 11 14` is recorded as 47.1 a.u.
`2'F-ANA at 2 3 6 7 9 12 13 14` — result for “mean fluorescence intensity”: 327 a.u.
`2'F-ANA at 1 3 5 6 8 11 14 15`: “mean fluorescence intensity” 57.3 a.u.
`2'F-ANA at 3 4 5 8 9 10 11 13 15` — result for “mean fluorescence intensity”: 51.3 a.u.
`2'F-ANA at 7 9 11 13 15` — result for “mean fluorescence intensity”: 354 a.u.

Single results of other studies
`PhoQ, residues 284 288 289 292 302 303 SSLVEF` gave a fold induction of 1.23 (PhoP, residues 12 14 15 18 19 LQHIR (Escherichia coli, UniProt P23836); Sort-seq, refers to: YFP reporter; E. coli; PhoQ-PhoP variant library, added: 10 µM Mg2+; reference: high Mg2+ state, higher = stronger signaling).

Excerpt of the above (set 1):
The log2 enrichment of `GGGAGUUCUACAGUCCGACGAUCUUUUCAAGGGGGCCCCAACUGGGGCCGCCUUGUAGCCUUCUUUGUCUUUGGGGCUGCACUGUGUGCUGAGAGUGUCAACAAGGAGAUGGAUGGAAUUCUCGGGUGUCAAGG` is reported as -1.55.
`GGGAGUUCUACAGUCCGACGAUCAAGUCCUGUGCUACACAUCGUAUGUACCGAAUCGGUUUUUUUGGUGGAAAAAAAGGAAAGUAUUAUGUUACGCCGUUCGGAUCUGCACUUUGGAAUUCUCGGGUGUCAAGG` has a log2 enrichment of -2.01.
With `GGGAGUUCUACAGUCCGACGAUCCACAGACAACACGCACCCACACAGACACAGAGGGCAGGGGUUGGGAUGGGGACAGGGUGCACAGCAGGGCGGGGUAGGACCCCAGCCCCUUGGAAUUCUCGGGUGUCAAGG` the log2 enrichment was -0.0209.
